Assay results collected from several papers.
Every numbered part comes from another study and shows a few of its results, in no order. Substitutions count along the parent as printed.

Set 1 — method: protein-binding microarray; molecule type: double-stranded DNA, one strand shown; sample: in vitro; tested at: 250 nM; notes: 60-bp whole probe; with: salmon DNA 0.4 mg/ml; relative to: random background probes; direction: higher = stronger binding; all sequences stand within: GCCTAGCAC … GTCTTGATTCGCTTGACGCTGCTG
Target: Interferon regulatory factor 5, full length, phosphomimetic (IRF5, Homo sapiens, UniProt Q13568-2, residues 1-514, K96S/S451D/S453D/S456D/S462D)
Oligonucleotide | log fluorescence [z-score]
GACGGTATCGGGTTTCGGGAGGTGCTA | 4.38
TCATTCTTGCATCTGGGACTGTGCTAG | 0.413
GAAAACAAAGAAAATACAAAGTGCTAG | 1.88
CTAGGACTGGGGACTGGGTTAGTGCTA | -0.883
GGCGGTTTCGGGTATCGGGACGTGCTA | 8.18
TCAATTTTCTCTTATTCACTGTGCTAG | 1.88
GACGGTCTCCTGTTCCTGACGTGCTAG | -0.0507
GACAGTATCCTTTTCCTGACGTGCTAG | 1.02
GACGGAATGCTACTGCTGACGTGCTAG | -0.595
TTAGGCCTGCTTATCCTTTAGTGCTAG | -0.417
GACGAACTGAGTCTCGAGATGTGCTAG | -0.0165
GACTATTCCAGTTTCGAGACGTGCTAG | 5.83
TGAGGTTTCGACTTTCGGTTAGTGCTA | 9.83
AAGACTCTCTTGTCTGGATGTGTGCTA | -0.558
GGCGAACTGGGGTATCGAGACGTGCTA | -0.0872
TTAGGACGGGGGTTTCGGTTAGTGCTA | 8.03
GACGGTATCGGTTTCGCGACGTGCTAG | 6.97
GACGGATTCGGGACTGGGGACGTGCTA | -0.248
TTAGATCTCAGTCACGATTAGTGCTAG | -0.0109
TTAGATATCGGGTATCGCTTAGTGCTA | 3.31
GCTGCCCTCACCATCATCCTGTGCTAG | -0.173
GCCGGACTGGGGTATCGGGACGTGCTA | -0.284
GACGGTATCGGTCTCGTGACGTGCTAG | 5.26
TCAGCTGTTTTTCTCACCACGTGCTAG | 0.534
ACTCGTGACCCTCTCAAAGGGTGCTAG | -0.528

Set 2 — method: RNA Bind-n-Seq; molecule type: RNA; sample: in vitro; tested at: 200 nM; notes: whole 134-nt RNA, ends assumed; with: 150 mM KCl; relative to: input library; direction: higher = stronger binding
Target: Ras GTPase-activating protein-binding protein 1, full length (G3BP1, Homo sapiens, UniProt Q13283)
UniProt Q13283, sequence (whole entry, looked up): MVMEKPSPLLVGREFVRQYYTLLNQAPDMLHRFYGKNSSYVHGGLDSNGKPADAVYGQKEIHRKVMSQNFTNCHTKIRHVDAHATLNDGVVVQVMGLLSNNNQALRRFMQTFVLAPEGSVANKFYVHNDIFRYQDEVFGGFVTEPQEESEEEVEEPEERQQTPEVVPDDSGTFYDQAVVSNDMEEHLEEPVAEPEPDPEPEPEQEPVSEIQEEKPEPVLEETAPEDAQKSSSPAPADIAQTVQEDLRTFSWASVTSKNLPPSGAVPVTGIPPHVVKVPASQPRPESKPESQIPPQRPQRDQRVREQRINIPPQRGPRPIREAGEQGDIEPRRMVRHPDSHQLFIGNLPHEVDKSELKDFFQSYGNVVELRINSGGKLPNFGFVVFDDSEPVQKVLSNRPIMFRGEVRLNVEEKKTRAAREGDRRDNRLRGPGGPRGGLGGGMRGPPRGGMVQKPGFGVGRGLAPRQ
All sequences stand within: GGGAGUUCUACAGUCCGACGAUC … UGGAAUUCUCGGGUGUCAAGG
Oligonucleotide | log2 enrichment
AGGGAGGUGGAUUUUGUUUAUUUUUUUAGCUCAUUUCCAGGGGUGGGAAUUUUUUUUUAAUAUGUGUCAUGAAUAAAGUUGUUUUUGAAA | -0.00312
UCCUGUGCUACACAUCGUAUGUACCGAAUCGGGUUUUUUUGGGUUUUUUUGGGUUUGGGAAAGUAUUAUGUUACGCCGUUCGGAUCUGCA | -0.335
CUGCGCGCGGAUUUCCCUCUCUGAGGAAGUUUAUCCUUGUGCCUUCUGGAGGAUUUCUCUCUAGCUCGACUCACUCUGGACUGACUCGCU | -0.685
UGGCCCUGGUGGCAUGCGGGGAGGAAGAGGUGGCCUCAUGGAUCGUGGUGGUCCCGGUGGAAUGUCCAGAGGUGGCCGUGGUGGAGACAG | -0.0791
AGUCCUGUGCUACACAUCGUAUGUACCGAAUCGGUUUUUUUGGAAAAAAAGGAAAGGAAAGUAUUAUGUUACGCCGUUCGGAUCUGCACU | -1.47
GUCCUGUGCUACACAUCGUAUGUACCGAAUCGGGGAAAAAGGGGUUUUUGGGGUGGGGAAAGUAUUAUGUUACGCCGUUCGGAUCUGCAC | 0.349
UCAAGUCCUGUGCUACACAUCGUAUGUACCGAAUCGGGUUUGGGUGGGAAAGGGAAAGUAUUAUGUUACGCCGUUCGGAUCUGCACUUCC | 1.06
AGUCCUGUGCUACACAUCGUAUGUACCGAAUCGGGGAAAAGGGGAAAAGGAAAAGGGGAAAGUAUUAUGUUACGCCGUUCGGAUCUGCAC | 0.00659
UAACUUUAGAGGAGGAUCUGAUGGAUAUGGCAGUGGACGUGGAUUUGGGGAUGGCUAUAAUGGGUAUGGAGGCGGACCUGGAGGUGGCAA | 0.254
CCUGUGCUACACAUCGUAUGUACCGAAUCGGGGAAAAAAAGGGGAAAAAGGGGAAAGGGGAAAGUAUUAUGUUACGCCGUUCGGAUCUGC | 0.267
UAAUUUAGAUCUUAAAGAAAAAGUGGAGCCUGAGGUUCUCAGCACUGAUACCCAAACUUCCCCAGAGCCAGGCACAAGGAUGAACAUUCU | -0.528
CCUGUGCUACACAUCGUAUGUACCGAAUCGGGAAAAAAAGGAAAAAAAGGGGAAAAAAAGGAAAGUAUUAUGUUACGCCGUUCGGAUCUG | -0.878
UAACUUUAGAGGAGGAUCUGAUGGAUAUGGCAGUGGACGUUGAUUUGGGGAUGGCUAUAAUGGGUAUGGAGGAGGACCUGGAGGUGGCAA | 0.387
CGGUCAGACUUUGUGUUACAUAAAUUAACACUGUUCUCAGGUAAUGAGAGAUCCAAACACCAAGCGCUCCAGGGGCUUUGGGUUUGUCAC | -1.25

Set 3 — method: competition protein-binding microarray; molecule type: double-stranded DNA, one strand shown; sample: in vitro; tested at: 2 µM; with: Pho4 competitor, 0.05 µM; direction: higher = stronger binding; all sequences stand within: … GTCTTGATTCGCTTGACGCTGCTG
Target: Centromere-binding protein 1, full length, His-tagged (CBF1, Saccharomyces cerevisiae, UniProt P17106, residues 1-351)
UniProt P17106, sequence (whole entry, looked up): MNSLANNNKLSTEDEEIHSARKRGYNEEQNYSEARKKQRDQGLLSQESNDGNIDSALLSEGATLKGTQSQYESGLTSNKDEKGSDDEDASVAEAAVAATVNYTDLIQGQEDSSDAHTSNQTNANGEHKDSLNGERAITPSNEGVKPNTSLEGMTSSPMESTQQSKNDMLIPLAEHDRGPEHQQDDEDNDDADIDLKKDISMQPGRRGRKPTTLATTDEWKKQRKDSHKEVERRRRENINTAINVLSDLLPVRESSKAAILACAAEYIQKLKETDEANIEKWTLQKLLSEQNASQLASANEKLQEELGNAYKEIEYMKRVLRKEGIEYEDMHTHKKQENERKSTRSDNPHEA
Notes: whole 60-bp probe, lowest competitor level
Oligonucleotide | fluorescence intensity [a.u.]
ATTGATGATGGTTATCATGCTTGATAATAGACTTAA | 86.8
GGGGACTCTAACCGTCACGTTGGTTTGGGTATCAAG | 262
CTTTCCCGATCTTGGGAGGTGGGTGTAGCACATTTG | 67.1
CTAACGAAGGTTTGTTAAGTGGGTGACAAGCCAAGT | 65
TGTATAAATGTCCGTCACGTGGCCGTCTGTCTCTTA | 6900
AAATTACTAAGTTTACACGTGTTTTACCCCGTATGA | 1210
GTTCGACAGTATTGGCGCATGACAAAAGACGAGCCG | 78
AAACAAACCCTTACCCACGTGGCCGTATGGCTATGT | 917
AAAGCGGTAATTTGTCACAGGACTTCACATATCTAT | 137
TTCTTCTCCCAATCGCACGGCGAAGTCGCTCGACAA | 59.4
TTGGAAGTTGTATCGCACGTACAGGACCTGAACACT | 69.1
TCTCTTTGAAGCCGTCACGATAGTTACAGCTAGGGT | 82.4
AAATTACTAAGTTGTGGTGTGGGTGACGCCGTATGA | 71.1
CGGGGTTAAGTTTGAAATGTGGGTGGCTTGCAGCAG | 80.2
CATACCCAACCTTTTCACGTGATGTAAGATATTTGT | 3720
TTCAACGCCCTGGCTGATGTGACGCTGTTGGTGGAG | 53.4
TAAACGAGAGAGATGGGCATGACAGTAGGTAGGGCA | 69.1
ACTGAGCATCGTCGGCACGTCTTTGCAGCATCCAAT | 54.2
ACAATGTTTCGACATCACCTGTTATGAAAAAAATAT | 334
TTCTGTATTCCGGCGCAGGTGATGAACTTGATTACG | 145
CGGGGTTAAGTTTGTGTCGTGGGTGGCTTGCAGCAG | 83.2
AAATGTTGCTGCATAACCGTGCGATAAAACCTCATA | 77.5

Set 4 — target: CCNA2, cyclin fold, Cln2 fusion (human); method: yeast growth competition, sequencing; sample: yeast; notes: weak parent motif; relative to: not given; direction: higher = stronger binding
Starting sequence: E2F7 docking peptide (human); SSAQRRLEIPSGG
Variant | normalised enrichment score
SSAQRRLEAPSGG [I9A] | 0.207
SSAQRRLEIPSGA [G13A] | 0.569
SSAQRALEIPSGG [R6A] | -0.61
SAAQRRLEIPSGG [S2A] | 0.258
SSAQRRLELPSGG [I9L] | 0.8
SSAQKRLEFPSGG [R5K I9F] | 3.52
SSAQRRLEFPSGG [I9F] | 5.1
SSAQRRLEIASGG [P10A] | 0.41
SSAQRRAEIPSGG [L7A] | 0.114
SSAQARAEIPSGG [R5A L7A] | -0.0774

A few entries again (set 1):
Oligonucleotide | log fluorescence [z-score]
GCCGGACTGGGGTATCGGGACGTGCTA | -0.284
GACGGTATCGGTCTCGTGACGTGCTAG | 5.26
TCAGCTGTTTTTCTCACCACGTGCTAG | 0.534
ACTCGTGACCCTCTCAAAGGGTGCTAG | -0.528
